Experimental data collected from several papers.
Several values in a cell are separate wells, animals, samples, runs or records. ± marks the error that the study gave.

N=C(N)NCCC[C@H](NC(=O)[C@H](CCCNC(=N)N)NC(=O)[C@H](CCCCN)NC(=O)[C@H](CCC(N)=O)NC(=O)[C@H](CCCCN)NC(=O)[C@H](Cc1ccc(O)cc1)NC(=O)[C@@H](N)CCCCN)C(=O)N[C@@H](CO)C(=O)N[C@@H](Cc1ccc(O)cc1)C(=O)N[C@@H](CCCCN)C(=O)O — cold water VAS change (dentin hypersensitivity patients; 10 µg/tooth single, day 22, higher-VAS tooth; relative to: baseline): -33.8 ± 19.6 mm
CCCn1cc(C)c2c(=O)[nH]c(-c3cc(S(=O)(=O)N4CCN(CC)CC4)ccc3OCC)nc21 — change in SBP AUEC(0-4 h) (supine; concentration not given, 0 to 4 h; relative to: baseline): 5.04 ± 17.3 mmHg·h
Cc1cc(F)cc2c(CCC(=O)N[C@@H]3C(=O)NC[C@H]3O)c(-c3ccc(F)cc3)[nH]c12 — urine albumin/creatinine ratio (APOL1 G2 mice, IFNγ-induced; 30 mg/kg twice daily, day 12): 701 µg/mg and 3110 µg/mg and 143 µg/mg and 118 µg/mg and 637 µg/mg
O=C(COc1ccc(Cl)cc1)NC12CC(c3nnc([C@H]4C[C@@H](OC(F)(F)F)C4)o3)(C1)C2 — protein level change (measured: ATF4; PBMC ex vivo stimulated, human ALS patients; 100 mg, D28 predose; relative to: baseline): -72.6%
C[C@H]1C[C@H]2CSC(N)=N[C@@]2(c2nc(NC(=O)c3ccc(OC(F)F)cn3)cs2)CO1 — percent change from baseline (measured: total Aβ; healthy adults, plasma; 125 mg once daily, day 10; relative to: placebo): -62.1%
O=C(O)CCC(=O)O.[2H]C([2H])([2H])Oc1cc(C)c2[nH]ccc2c1CN1CC[C@@H](C2CC2)C[C@H]1c1ccc(C(=O)O)cc1 — trough inhibition (alternative complement pathway activity, Wieslab ELISA; human, serum; 100 mg twice daily, multiple ascending dose): > 90%
Cc1cc(/C=C2\Oc3cc(OCC4CC4)ccc3C2=O)cc(C)c1OC(C)(C)C(=O)O — mRNA level (RT-PCR, measured: PCK1, G6PC; db/db mice, MCD diet-fed, liver; 30 mg/kg; relative to: model group): decreased
CO[C@H]1CC[C@H](N2C(=O)CNc3ncc(-c4ccc(C(C)(C)O)nc4)nc32)CC1 — p4EBP1 change from baseline (flow cytometry; stimulated T cells, human, blood; 60 mg single dose, 24 h, mean; relative to: baseline): 11.7%
CCN1CCN(Cc2ccc(Nc3ncc(F)c(-c4cc(F)c5nc6n(c5c4)[C@H](C)CCC6)n3)nc2)CC1 — non-CR/non-PD (human advanced solid tumours; 500 mg, phase Ia monotherapy RECIST 1.1): 0%
c1ccc(-c2n[nH]cc2-c2ccnc3ccccc23)nc1 — log2 fold change (kinase binding, competitor, MIB/MS competition, measured: HST7; Candida albicans cell lysate; 1 µM; relative to: DMSO): 1.72
Cc1ccc(C(=O)Nc2ccnc(S(N)(=O)=O)c2)c(N2CCCC(F)(F)CC2)n1 — activity-dependent slowing (Macaca mulatta, C-nociceptors; intravenous, 0.6 mg/kg bolus then 0.8 mg/kg/h, 120 min): 73.7 % baseline
Cc1n[nH]c2ccc(-c3cc(OC[C@@H](N)Cc4ccccc4)cnc3-c3ccoc3)cc12 — log2 fold change (kinase binding, competitor, MIB/MS competition, measured: IRE1; Candida albicans cell lysate; 100 nM; relative to: DMSO): -0.11
CN[C@@H]1COc2c(S(=O)(=O)NC(=O)Nc3c4c(cc5c3CCC5)CCC4)cnn2C1 — inhibition (measured: IL-18; human participants, whole blood ex vivo; 1800 mg single dose, 336 h, IL-18, circulating, adjusted for, added: LPS/ATP; relative to: baseline): 35.5%
OC(CCN1CCCCC1)(c1ccccc1)C1CC2C=CC1C2 (stereo not drawn) — change in EEG Alpha1-power Pz-O1 (resting-state EEG; healthy elderly humans; oral, 2 mg, eyes closed, LS mean; relative to: baseline): -13.4%
CCN(Cc1nc2c(N)nc3cc(-c4cc[nH]n4)ccc3c2[nH]1)C(C)=O — overall survival rate (Kaplan-Meier; advanced solid tumour patients; dose not given, 6 months): 46.1%
NCC(=O)Nc1cncc(-c2nn3c(=O)cc(N4CCNCC4)nc3s2)c1 — inhibition (ADP-induced platelet aggregation, light transmission aggregometry; human, stable CAD on aspirin, ex vivo platelets; subcutaneous, 0.04 mg/kg, 120 min post-dose, mean value, added: ADP 20 µM): 1.65%
O=C(O)CNC(=O)Cc1ccccc1 — sarcomere length (ventricular cardiomyocytes, C57BL/6 mouse; dose not given, 0.224 s): 1.63 µm
COc1nc(NCc2cn(-c3ccc(C(=O)Nc4ccc(Br)cc4)cc3)nn2)nc(OC)n1 — maximum non-toxic concentration (MTT; normal colonocytes, rat; 72 h): 33.9 ± 0.43 nM
Cc1cc([C@H]2C[C@H]3[C@@H](CF)SC(N)=N[C@@]3(c3ccc(F)cc3F)CO2)on1 — Aβ42 level (measured: Aβx-42; Mus musculus wild-type, brain; subcutaneous, 100 mg/kg, 5 h): 0.39 ng/g
N#Cc1ccc2c(c1)[C@H]1CCCN(C(=O)c3ccc4[nH]cnc4c3)[C@H]1C2 — change in HOMA-IR (human, plasma; 160 mg, day 15, 360 h; relative to: placebo and baseline): 31.6%
Cc1cnc(N2CC3(CCOCC3)C2)c(C(=O)Nc2ccc(C(=O)N3CCc4cc(C(=O)Nc5c(C)cccc5F)sc4-c4ccccc43)cc2)c1 — inhibition of MPO AUC (human, RSV infection, nasal wash; dose not given, ITT-I population; relative to: placebo): -25%
N#Cc1ccc2c(CN3CCOCC3)cc(-c3ccc([C@H]4CCC(=O)N4)cc3)nc2c1 — mRNA level (no effect, measured: Il6; BTBR ob/ob mice, female, diabetic wound model, wound tissue; dose not given, 21 days; relative to: vehicle): no effect
CN1CC[C@@H](c2c(O)cc(O)c3c(=O)cc(-c4ccc(C(F)(F)F)cc4Cl)oc23)[C@@H]1CO — change in SPD (human; dose not given, 110 days therapy): -28%
N.N.O=C([O-])C1(C(=O)[O-])CCC1.[Pt+2] — platinum-DNA adducts (ICP-MS; human patient, PBMC DNA; dose not given, after compound, added: carboplatin): 2.06 fg Pt/ng DNA
CN(C)C(=O)Oc1cccc([N+](C)(C)C)c1 — train-of-four ratio (neuromuscular block reversal; rat; dose not given, 16.5 (unit not given), added: cisatracurium; relative to: T1 twitch): 95.3
Cc1coc([C@H]2C[C@H]3[C@@H](CF)SC(N)=N[C@@]3(c3ccc(F)cc3F)CO2)n1 — Aβ42 level (measured: Aβx-42; Mus musculus wild-type, brain; subcutaneous, 80 mg/kg, 3 h): 0.48 ng/g
O=C(O[C@@H]1[C@@H](O)[C@H](Oc2cc(O)c3c(c2)O[C@H](c2ccccc2)CC3=O)O[C@@H]2COC(=O)c3cc(O)c(O)c(O)c3-c3c(cc(O)c(O)c3O)C(=O)O[C@@H]12)c1cc(O)c(O)c(O)c1 — platelet accumulation (laser-injury thrombosis model; mouse, cremaster arterioles; intravenous infusion, dose not given; relative to: control): 18 ± 6.2%
COc1cccc(CC2NC(=O)CN(Cc3ccccc3)C2=O)c1I (stereo not drawn) — mechanical paw withdrawal threshold (electronic von Frey; rat spinal nerve ligation; intraperitoneal, 3 mg/kg, up to 3 h, added: gabapentin 30 mg/kg i.p.): decreased
O=P(O)(O)C(Cl)(Cl)P(=O)(O)O — VCAM-1 level (endothelial activation, immunostaining; Mus musculus, sham-operated, cortical capillary endothelium; dose not given): 6.38 MFI
N#Cc1ccc2c(c1)[C@H]1CCCN(C(=O)c3ccc4[nH]cnc4c3)[C@H]1C2 — change from baseline (measured: FPG; human; 80 mg once daily, day 28, adjusted mean): 8 mg/dL
FC(F)(F)Oc1cccc(-c2cnc3ccc(-c4ccncc4)nn23)c1 — tumour size (MDA-MB-231 xenograft, NSG mouse; oral, 10 mg/kg daily, day 13; higher = larger tumour): 0.0983 a.u. and 0.211 a.u. and 0.137 a.u. and 0.0907 a.u.
[177Lu+3].[Cl-].[Cl-].[Cl-] — Ki-67 positive cells (immunohistochemistry; BALB/c mice, 4T1 tumour; dose not given, 7 days): 30.4 ± 0.66%
COc1ccccc1[C@H](Cn1c(=O)n(C(C)(C)C(=O)O)c(=O)c2c(C)c(-c3ncco3)sc21)OC1CCOCC1 — blood Triglycerides level (human; 50 mg, post-treatment): 143 ± 103 mg/dL
N#Cc1ccn2c(-c3ccncc3)c(-c3ccc(F)cc3)nc2c1 — log2 fold change (kinase binding, competitor, MIB/MS competition, measured: HSL1; Candida albicans cell lysate; 100 nM; relative to: DMSO): -0.025
C=CC[C@@H]1/C=C(\C)C[C@H](C)C[C@H](OC)[C@H]2O[C@@](O)(C(=O)C(=O)N3CCCC[C@H]3C(=O)O[C@H](/C(C)=C/[C@@H]3CC[C@@H](O)[C@H](OC)C3)[C@H](C)[C@@H](O)CC1=O)[C@H](C)C[C@@H]2OC — Banff i score (rhesus monkey kidney transplant, kidney allograft; dose not given; direction not given): 0
Cn1cc(Nc2nccc(-c3ccc4c(c3)CN(C3COC3)CC[C@H]4NC(=O)c3cn(C(C)(C)C)nn3)n2)cn1 — pathway activation z-score (measured: Valine Degradation I; splenic B cells, Mus musculus; 30 mg/kg, added: IgD activation; relative to: vehicle, direction not given): 1

Excerpt of the above:
O=C(O)CCC(=O)O.[2H]C([2H])([2H])Oc1cc(C)c2[nH]ccc2c1CN1CC[C@@H](C2CC2)C[C@H]1c1ccc(C(=O)O)cc1 — trough inhibition (alternative complement pathway activity, Wieslab ELISA; human, serum; 100 mg twice daily, multiple ascending dose): > 90%
Cc1cc(/C=C2\Oc3cc(OCC4CC4)ccc3C2=O)cc(C)c1OC(C)(C)C(=O)O — mRNA level (RT-PCR, measured: PCK1, G6PC; db/db mice, MCD diet-fed, liver; 30 mg/kg; relative to: model group): decreased
